Measured values of several laboratories.
Numbered parts are unrelated; each lists some results of a single study. Changes are numbered by the printed parent chain.

Study 1 — target: CCNA1, cyclin fold, Cln2 fusion (human); technique: yeast growth competition, sequencing; matrix: yeast; setting: weak parent motif; relative to: not given; direction: higher = stronger binding; endpoint: normalised enrichment score
Starting sequence: PKN2 docking peptide (human); VSAVQKLDFSDTM; partner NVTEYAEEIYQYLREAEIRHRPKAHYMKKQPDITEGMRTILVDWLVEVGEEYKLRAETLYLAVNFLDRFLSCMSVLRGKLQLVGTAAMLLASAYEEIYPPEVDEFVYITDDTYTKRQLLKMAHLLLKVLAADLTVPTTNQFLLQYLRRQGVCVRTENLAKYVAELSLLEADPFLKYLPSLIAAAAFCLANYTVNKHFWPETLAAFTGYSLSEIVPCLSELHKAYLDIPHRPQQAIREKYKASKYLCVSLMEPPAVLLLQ
V4E: 0.485
L7M: 0.169
M13E: 0.178
S10R: 0.172
S2A: 0.469
L7G: 0.198
T12E: 0.444
D11I: -0.218
S10M: 0.473
T12F: 0.238
D8P: 0.387
S10L: 0.0335
S2T: 0.303
V4L: 0.542
V1M: 0.00109

Study 2 — technique: RNA Bind-n-Seq; form: RNA; matrix: in vitro; concentration: 200 nM; setting: whole 134-nt RNA, ends assumed; added: 150 mM KCl; relative to: input library; direction: higher = stronger binding; endpoint: log2 enrichment
Target: Fragile X messenger ribonucleoprotein 1, C-terminal low-complexity region (Fmr1, Mus musculus, UniProt P35922)
Shared flanks, not repeated: GGGAGUUCUACAGUCCGACGAUC … UGGAAUUCUCGGGUGUCAAGG
UCAAGUCCUGUGCUACACAUCGUAUGUACCGAAUCGGGCCGGGGCCGGGCCGGGAAAGUAUUAUGUUACGCCGUUCGGAUCUGCACUUCC: 0.261
GGCAGGAGGAAGAGCGCAGGCGCCGUGAAGAAGAGAUGCGGCGGCAGCAAGAAGAAAUGAUGCGGCGACAGCAGGAAGGAUUCAAGGGAA: 0.551
UGGGAGGUGGAUUUUGUUUAUUUUUUUAGCUCAUUUCCAGGGGUGGGAAUUUUUUUUUAAUAUGUGUCAUGAAUAAAGCUGUUUUUGAAA: 0.225
AAGUCCUGUGCUACACAUCGUAUGUACCGAAUCGGGGCCCCGGGCCCCGGCCCCGGAAAGUAUUAUGUUACGCCGUUCGGAUCUGCACUU: -0.801
UCCUGUGCUACACAUCGUAUGUACCGAAUCGGGAAAAAAGGAAAAAAGGGAAAAAAGGGAAAGUAUUAUGUUACGCCGUUCGGAUCUGCA: -0.17
CCUGUGCUACACAUCGUAUGUACCGAAUCGGGGAAAGGGGAAAAAGGGGUUUUUUUGGGGAAAGUAUUAUGUUACGCCGUUCGGAUCUGC: 0.224
AAGUCCUGUGCUACACAUCGUAUGUACCGAAUCGGGCCCGGGGCCCGGGGCCCGGGGAAAGUAUUAUGUUACGCCGUUCGGAUCUGCACU: -0.646
AAGUCCUGUGCUACACAUCGUAUGUACCGAAUCGGGGAAAGGGAAAGGGAAAGGGGAAAGUAUUAUGUUACGCCGUUCGGAUCUGCACUU: 0.423
CCUGUGCUACACAUCGUAUGUACCGAAUCGGGUUUUUUUGGGUUUUUUUGGGUUUUUGGGAAAGUAUUAUGUUACGCCGUUCGGAUCUGC: -0.311
CCUGUGCUACACAUCGUAUGUACCGAAUCGGGGCCCCCCGGGGCCCCCCGGGCCCCCCGGAAAGUAUUAUGUUACGCCGUUCGGAUCUGC: -0.981
GUCCUGUGCUACACAUCGUAUGUACCGAAUCGGGGUUUUUGGGGAAAAAGGGGAGGGGAAAGUAUUAUGUUACGCCGUUCGGAUCUGCAC: 0.508
UUUUAAUUUGUUUGUCUCUCAUGAAACUAUGGUCUUUUAAAAAUUAAAGGUUUUUUUUUUCCCCUUAGACGAAACUGCAAAGGAAAUCCG: -0.251
CAAGUCCUGUGCUACACAUCGUAUGUACCGAAUCGGGGAGGGGAAAGGGGUGGGGAAAGUAUUAUGUUACGCCGUUCGGAUCUGCACUUC: 1.15
UGGCCCUGGUGGCAUGCGGGGAGGAAGAGGUGGCCUCAUGGAUCGUGGUGGUCCCGGUGGAGUGUUCAGAGGUGGCCGUGGUGGAGACAG: 0.129

Study 3 — technique: RNA Bind-n-Seq; form: RNA; matrix: in vitro; concentration: 365 nM; relative to: no-protein control; direction: higher = stronger binding; endpoint: RBNS enrichment (R)
Target: RNA binding protein fox-1 homolog 2, RRM domain, GST-SBP tag (RBFOX2, Homo sapiens, UniProt O43251-10, residues 100-194)
Setting: natural RNA segment, single round, ends assumed
Shared flanks, not repeated: GGGAGUUCUACAGUCCGACGAUC … UGGAAUUCUCGGGUGCCAA
Target sequence (chain): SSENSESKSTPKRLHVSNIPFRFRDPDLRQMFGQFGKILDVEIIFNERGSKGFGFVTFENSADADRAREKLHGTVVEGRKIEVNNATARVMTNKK
UCGGCAGCGUAGCCAGCUGCUGCUUGAGGCCAUGGCUCGUCCCCGGAGUUGGGGGUACCCGUUGCAGAGCCAGGGACAUGAUGCAGGCGAAGCUUGGGAUCUGGCCAAGU: 1.36
UUUAGUUUCUAGGAAGCCACUGUGCUGUGCUAAGAAGCAGUUGGUCAGGAGGGCUCAGCCCAGGAGCAGGUGGCCCUGGGGUGCAUGUCAGCCAGGGGCCAGUCAGCCCA: 2.13
UUUAGCAAUAUGCUCUACAUAAAAUCACUACAGAGAUACUAGUGGGGAAGACGAUUAACACACCUCUUACAGUAAUACUGCCUGUUAUUGGUAUAGCAGUGGUAUUUGCA: 1.19
UUAUUUGGGUCCCAGAUGGAGCCCACCGCGGACUUGCCUUGCAUUCCUCAGGCCAGGCAAGCCUGAGCCAGAAAGGGCGCACGGUGCCAGCCCCUCUCGGGGACUCUGGG: 0.282
GAUAGGGGUCGUUAUUGUAGCAUAUUUGGUUUCUAAAUCACUGCUUAUUUUUAUUUGCAAUCUCUAAAAACAAAUUUUAUUUCAAUUACGUCUUACUGAAGAAGUCUUUC: 0.306
AAAAGAAAAAGAACAAAGAAACCCUUUAUUUCAUUAAAUGAUUUUUUCUGGUGGUUGUCAAGAAACAAAAGACCAAAAGAGCCUUUUUGUCUUUCUUUUUUAUUUUUUAA: 0.611
AUGAUGGCAUGAAGUAAAAGGGGCCUCAAUGAUGAUAGGAAAAUCAGUUCUUUUAAAAUUUCUUCAAGAAAAUCCAGGCUAUCACAUAGUCUUUCUGUGUGACUUAUUAG: 0.896
AUUAAGUGUCUAAUGCUAGGAGUUUAUUGGAAGUGUUUAAGAAAUAAAAGAACUCAACUUUUACACUGAUAAAAUACUCUAGCUUGGGCCAGAGAAGACAGUGCUCGUUA: 2.78
GUCACCUCGGUCAUGCGCCCAGACAACAGACGACGAAAACACCCGUGCCGAUCUCGUGUUCUUUCCUGGAUCACAGACAUUAACAAAAAAGUUAAUUUAUGUGACUUGGC: 0.206
GCUUGUUGUUUGAGAAGUUUAACCCCGUUGCUUGUUGUUCUGCAGCCCUGUCUACUUGGGCACCCCCACCACCUGUUAGCUGUGGUUGUGCACUGUCUUUUGUAGCUCUG: 16.6
GGUGCAGGCCACCAACAGCAGCGUCUACCAGGUUUUGUGCCUUAACAGUCUCAAGGGCUGAAGCCCAUUCAUUUUAUAAGCUGUCACCAUGGGCUGCUGCUUCCUCUUGC: 0.247
CAAAAUACUCUCAUUUCGGUUUUUCCUGAAACCUUAUUUGGCCAUUCCCAUGGUUUUAUGACAGACAAGCCUUGUCUUCUAUUCAUAUAGAUAUGCACCUUUUUCUACAU: 0.614

Other studies, line by line
PhoQ, residues 284 288 289 292 302 303 SSYNSA  fold induction (PhoP, residues 12 14 15 18 19 IFFTR (Escherichia coli, UniProt P23836); Sort-seq, measured: YFP reporter; E. coli; PhoQ-PhoP variant library, added: 10 µM Mg2+; relative to: high Mg2+ state, higher = stronger signaling): 20.7
